Assay results pooled from the literature.
A part holds a random share of what one study measured. Substitutions count along the parent as printed.

Series 1 — technique: universal PBM; molecule type: double-stranded DNA, one strand shown; matrix: in vitro; tested at: not given; reading: higher = stronger binding
Target: Sal-like protein 4, full length isoform B (SALL4, Homo sapiens, UniProt Q9UJQ4-2, residues 1-616)
Setting: 8-mer, flanks averaged, mean of replicates
| Oligonucleotide | E-score |
| --- | --- |
| ACCCGCAA | -0.197 |
| CCGAGGGA | -0.319 |
| GCAGTTAC | 0.0734 |
| GATATGCA | 0.21 |
| ACCGAGAG | -0.12 |
| GCGAGTCA | -0.195 |
| GGTTTAAC | 0.0169 |
| AGGCCCAA | -0.142 |
| CACGATCG | -0.0499 |
| AGCGCCTA | -0.145 |

Series 2 — target: CCNB3, cyclin fold, Cln2 fusion (human); technique: yeast growth competition, sequencing; matrix: yeast; setting: weak parent motif; baseline: not given; reading: higher = stronger binding
Starting sequence: CDKN1A docking peptide (human); SKACRRLFGPVDS; partner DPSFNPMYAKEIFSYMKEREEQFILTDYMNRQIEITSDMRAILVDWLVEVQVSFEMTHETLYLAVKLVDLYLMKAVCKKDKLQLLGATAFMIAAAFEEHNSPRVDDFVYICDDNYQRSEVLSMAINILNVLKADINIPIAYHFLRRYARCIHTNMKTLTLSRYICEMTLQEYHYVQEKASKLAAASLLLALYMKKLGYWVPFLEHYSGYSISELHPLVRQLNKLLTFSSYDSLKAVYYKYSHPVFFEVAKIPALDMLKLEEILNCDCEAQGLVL
| Substitution | normalised enrichment score |
| --- | --- |
| V11R | 0.824 |
| P10R | 0.639 |
| C4S | 0.347 |
| A3D | 0.0675 |
| R5N | 0.11 |
| D12E | 0.0899 |
| F8H | 0.162 |
| D12M | 0.566 |

Series 3 — technique: RNAcompete; molecule type: RNA; matrix: in vitro; tested at: 20 nM; setting: 7-mer, probes averaged, single round; baseline: mean of 7-mers; reading: higher = stronger binding
Target: PABPC1L2, full length, GST fusion (mouse, UniProt A0ABA7IW68)
Residues (chain): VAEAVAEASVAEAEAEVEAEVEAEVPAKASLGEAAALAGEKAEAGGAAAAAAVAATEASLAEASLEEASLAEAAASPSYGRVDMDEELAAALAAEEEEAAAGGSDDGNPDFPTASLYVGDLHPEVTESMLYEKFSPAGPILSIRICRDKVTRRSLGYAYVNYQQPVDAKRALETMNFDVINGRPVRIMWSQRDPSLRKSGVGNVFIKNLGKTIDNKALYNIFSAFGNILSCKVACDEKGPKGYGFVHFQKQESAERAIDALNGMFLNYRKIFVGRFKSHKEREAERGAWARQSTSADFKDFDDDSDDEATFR
| Oligonucleotide | 7-mer Z-score |
| --- | --- |
| GCAAUAU | 0.0279 |
| ACUGCAU | -0.208 |
| AUUGCCG | -0.164 |
| GGAAGAG | 0.267 |
| UAGCAGC | -0.22 |
| CAGCUUU | -0.235 |
| UACUGUA | -0.166 |
| CACGUUC | -0.336 |
| AGAAUCU | -0.222 |
| UAAGUUC | -0.327 |

Further values, each from its own experiment
| Molecule | target | test | system | conditions | scale | measurement | result |
| --- | --- | --- | --- | --- | --- | --- | --- |
| PhoQ, residues 284 288 289 292 302 303 TGYLSA | PhoP, residues 12 14 15 18 19 AQALL (Escherichia coli, UniProt P23836) | Sort-seq, item: YFP reporter | E. coli | PhoQ-PhoP variant library, added: 10 µM Mg2+ | baseline: high Mg2+ state, higher = stronger signaling | fold induction | 9.28 |
